Published values pooled from the literature.
Every numbered part comes from another study and shows a few of its results, in no order. Several values in a cell are separate wells, animals, samples, runs or records.
UniProt Q6P2M8, sequence (whole entry, looked up): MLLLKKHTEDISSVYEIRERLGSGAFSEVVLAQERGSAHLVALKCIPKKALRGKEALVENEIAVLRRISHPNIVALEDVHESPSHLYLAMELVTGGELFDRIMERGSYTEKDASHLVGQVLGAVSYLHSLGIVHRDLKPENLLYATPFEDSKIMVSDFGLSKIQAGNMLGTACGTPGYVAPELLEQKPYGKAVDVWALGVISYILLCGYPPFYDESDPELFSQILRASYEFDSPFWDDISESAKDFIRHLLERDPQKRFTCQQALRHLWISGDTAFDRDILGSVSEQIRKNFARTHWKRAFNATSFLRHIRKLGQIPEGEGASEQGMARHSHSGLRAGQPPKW
UniProt Q06187, sequence (whole entry, looked up): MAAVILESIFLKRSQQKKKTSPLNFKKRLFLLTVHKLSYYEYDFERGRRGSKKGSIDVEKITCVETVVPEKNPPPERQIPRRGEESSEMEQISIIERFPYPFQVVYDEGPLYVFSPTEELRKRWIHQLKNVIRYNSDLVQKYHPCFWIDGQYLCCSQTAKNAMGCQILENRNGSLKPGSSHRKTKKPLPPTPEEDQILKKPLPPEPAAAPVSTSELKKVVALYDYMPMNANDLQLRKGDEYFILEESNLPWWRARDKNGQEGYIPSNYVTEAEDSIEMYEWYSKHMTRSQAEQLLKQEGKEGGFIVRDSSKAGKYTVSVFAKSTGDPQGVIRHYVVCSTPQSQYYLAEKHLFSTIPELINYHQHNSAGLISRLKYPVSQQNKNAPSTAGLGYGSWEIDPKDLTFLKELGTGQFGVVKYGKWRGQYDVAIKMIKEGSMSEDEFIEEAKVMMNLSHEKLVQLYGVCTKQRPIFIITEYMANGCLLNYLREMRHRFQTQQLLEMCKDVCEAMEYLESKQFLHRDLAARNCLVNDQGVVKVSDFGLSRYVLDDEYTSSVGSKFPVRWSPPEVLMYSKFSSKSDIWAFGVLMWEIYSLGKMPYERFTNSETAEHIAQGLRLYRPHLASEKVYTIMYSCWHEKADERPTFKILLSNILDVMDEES

Set 1
Target: Eukaryotic initiation factor 4A-I (EIF4A1, Homo sapiens, UniProt P60842, residues 1-406, full length assumed)
UniProt P60842, sequence (whole entry, looked up): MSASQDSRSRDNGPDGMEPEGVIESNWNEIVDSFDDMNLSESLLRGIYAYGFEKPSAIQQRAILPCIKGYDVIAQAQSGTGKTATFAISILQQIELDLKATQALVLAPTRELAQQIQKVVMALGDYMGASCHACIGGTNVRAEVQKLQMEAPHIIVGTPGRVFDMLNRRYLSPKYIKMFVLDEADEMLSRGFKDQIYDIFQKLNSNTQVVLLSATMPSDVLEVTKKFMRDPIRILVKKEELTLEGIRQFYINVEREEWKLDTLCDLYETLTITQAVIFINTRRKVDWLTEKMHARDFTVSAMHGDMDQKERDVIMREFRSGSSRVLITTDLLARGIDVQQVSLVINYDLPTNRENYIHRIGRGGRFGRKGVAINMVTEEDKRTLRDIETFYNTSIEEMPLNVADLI
Method: RNA Bind-n-Seq
Form: RNA
Sample: in vitro
Concentration: 15 pmol
Notes: 4-mer, random 30-nt RNA, single round
Added: DMSO vehicle, 2 mM AMP-PNP
Relative to: input library
Reading: higher = stronger binding
Strand | 4-mer enrichment
UGUC | 0.893 fold
GCGG | 1.13 fold
UCAA | 1.4 fold
GUGA | 0.939 fold
UUAU | 0.852 fold
CCAU | 1.59 fold
CUGG | 1.41 fold
CGCC | 1.99 fold

Set 2
Target: NUAK family SNF1-like kinase 1 (NUAK1, Homo sapiens, UniProt O60285)
UniProt O60285, sequence (whole entry, looked up): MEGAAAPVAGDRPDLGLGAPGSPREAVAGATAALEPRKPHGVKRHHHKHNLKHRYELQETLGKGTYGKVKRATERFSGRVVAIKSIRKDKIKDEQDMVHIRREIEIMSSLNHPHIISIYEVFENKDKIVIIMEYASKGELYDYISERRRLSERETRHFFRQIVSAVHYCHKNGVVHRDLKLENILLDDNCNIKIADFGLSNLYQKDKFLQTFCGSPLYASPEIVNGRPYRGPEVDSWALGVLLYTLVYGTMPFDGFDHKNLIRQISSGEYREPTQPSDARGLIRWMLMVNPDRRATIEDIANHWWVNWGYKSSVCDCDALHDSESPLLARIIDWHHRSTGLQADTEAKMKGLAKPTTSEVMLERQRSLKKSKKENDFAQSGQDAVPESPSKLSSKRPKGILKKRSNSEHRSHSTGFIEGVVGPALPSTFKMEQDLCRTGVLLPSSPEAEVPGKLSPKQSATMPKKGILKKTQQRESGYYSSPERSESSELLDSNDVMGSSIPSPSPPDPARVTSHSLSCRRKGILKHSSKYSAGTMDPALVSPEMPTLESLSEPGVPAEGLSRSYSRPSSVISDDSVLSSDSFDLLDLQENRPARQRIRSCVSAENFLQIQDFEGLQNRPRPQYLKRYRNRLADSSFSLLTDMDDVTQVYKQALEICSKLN
Read-out: enzyme activity
Mode: inhibitor
Concentration: 0.5 µM
Relative to: control
Structure (SMILES) | remaining activity [%]
Nc1[nH]nc2nc3ccccc3nc12 | 86.3
COc1cc2ncnc(Nc3ccc(F)c(Cl)c3)c2cc1OCCCN1CCOCC1 | 99.1
CC(C)[C@H](CO)Nc1nc(Nc2cc(N)cc(Cl)c2)c2ncn(C(C)C)c2n1 | 61.5
O=c1c2ccccc2[nH]c(=S)n1CCN1CCC(=C(c2ccc(F)cc2)c2ccc(F)cc2)CC1 | 102
Cc1ccc(Nc2nccc(N(C)c3ccc4c(C)n(C)nc4c3)n2)cc1S(N)(=O)=O | 53.4
COc1cc2ncnc(Nc3ccc(Oc4ccccc4)cc3)c2cc1OC | 105
O=S(=O)(c1cccc2cnccc12)N1CCCNCC1 | 73.2
CNC(=O)c1cc(Oc2ccc(NC(=O)Nc3ccc(Cl)c(C(F)(F)F)c3)cc2)ccn1 | 103
COc1ccc(OC)c2c(=S)c3ccccc3[nH]c12 | 99.3
COc1ccc(CNC(=O)Nc2ncc([N+](=O)[O-])s2)cc1 | 99.7
O=C1NC(=O)C(c2cn(CCCn3ccnc3)c3ccccc23)=C1Nc1ccccc1 | 70.6
Cc1ccc(NC(=O)c2ccc(CN3CCN(C)CC3)cc2)cc1Nc1nc(-c2cccnc2)cs1 | 110
COc1cc2nccc(Oc3ccc(NC(=S)NC(=O)c4ccccc4C)cc3)c2cc1OC | 82.5
O=C(O)c1ccc2c3c1cccc3c(=O)n1c3ccccc3nc21 | 41.3
Cc1nc(-c2ccccc2)c(-c2ccncc2)o1 | 100

Set 3
Compound: O=C(N[C@H]1CCCCC/C=C\C2C[C@@]2(C(=O)O)NC(=O)[C@@H]2C[C@@H](Oc3ccncc3)CN2C1=O)OC1CCCC1 (stereo partly shown)
Method: competition with immobilised ligand
Concentration: 1 µM
target | assay | remaining binding
Receptor-type tyrosine-protein kinase FLT3, autoinhibited (FLT3, Homo sapiens, UniProt P36888) | binding | 100%
PNCK (Homo sapiens, UniProt Q6P2M8) | cell-free assay | 99%
Tyrosine-protein kinase ABL1, phosphorylated (ABL1, Homo sapiens, UniProt P00519, Y253F) | binding | 100%
BTK (Homo sapiens, UniProt Q06187) | binding | 100%

Set 4
Target: Prothrombin, mature alpha-thrombin (F2, Homo sapiens, UniProt P00734)
Method: aptamer microarray, sandwich
Form: DNA with 2'F-ANA
Sample: in vitro
Concentration: 200 nM
Notes: whole 15-mer aptamer, many near background
Added: Cy3 exosite-II aptamer, 400 nM
Reading: higher = stronger binding
Strand: GGTTGGTGTGGTTGG
Modification | mean fluorescence intensity [a.u.]
2'F-ANA at 1 2 4 6 7 8 9 11 14 | 67.5
2'F-ANA at 2 6 7 11 12 13 14 | 138
2'F-ANA at 2 3 4 5 7 8 10 11 | 50.9
2'F-ANA at 1 3 5 6 7 11 12 13 14 | 59.9
2'F-ANA at 1 2 4 5 11 12 13 | 68.6
2'F-ANA at 1 2 3 4 11 12 13 14 | 68.6
2'F-ANA at 1 2 3 4 5 7 8 14 | 48.3
2'F-ANA at 1 2 5 8 12 13 15 | 101

Other studies, line by line
SMILES | target or system | assay | conditions | how to read | quantity | value
c1ccc2c(-c3nn4c(-c5ccncc5)nnc4s3)c[nH]c2c1 | Gaucher fibroblasts | qPCR, measured: GBA1 mRNA | 0.5 µM, unit not given | relative to: vehicle | mRNA level | 0.631 and 1.01 and 0.744
C=CC(=O)N1CCN(c2nc(=O)n(-c3c(C)ccnc3C(C)C)c3nc(-c4c(O)cccc4F)c(F)cc23)[C@@H](C)C1 | GTPase HRas (HRAS, Homo sapiens, UniProt P01112, G12C) | – | – | – | IC50 | 0.033 µM

For quick reference, copied from above (set 4):
Modification | mean fluorescence intensity [a.u.]
2'F-ANA at 1 2 4 6 7 8 9 11 14 | 67.5
2'F-ANA at 2 6 7 11 12 13 14 | 138
2'F-ANA at 2 3 4 5 7 8 10 11 | 50.9
2'F-ANA at 1 3 5 6 7 11 12 13 14 | 59.9
